Published values gathered from unrelated publications.
Lines come from different studies, so protocols differ. “And” joins repeats or separate records; there may be more than shown. ± gives the spread as reported.
BIRC3 BIR3: Baculoviral IAP repeat-containing protein 3, BIR3 (BIRC3, Homo sapiens, UniProt Q13489)
Beta-lactamase CTX-M-27: Beta-lactamase CTX-M-27 (Escherichia coli, UniProt Q840M4)

With `COc1cc(CNC(=O)C[C@H](C)CCC=C(C)C)ccc1OCc1cn(-c2ccc([N+](=O)[O-])cc2)nn1` the growth percent was 39.2% (SR leukaemia cells; SRB; 10 µM, 48 h).
`COCCOc1cc2ncnc(Nc3cccc(-c4cn(Cc5ccc(C(=O)Nc6cccc(S(N)(=O)=O)c6)cc5)nn4)c3)c2cc1OCCOC` has a Ki of 0.192 µM (Carbonic anhydrase 6 (CA6, Homo sapiens, UniProt P23280); enzyme activity, inhibitor, stopped-flow).
The Ki of `CCC[C@@H]1[C@H](O)[C@@H](O)[C@H](O)[C@@H](CO)N1C(=S)NCCc1ccccc1` is reported as > 2000 µM (Alpha-galactosidase (Coffea arabica, UniProt Q42656); enzyme activity, competitive inhibitor; green coffee bean enzyme, optimal pH, added: p-nitrophenyl glycopyranoside).
With `CN[C@@H](C)C(=O)N[C@H]1CN(C(=O)Cc2ccccc2)CC[C@H]2CC[C@@H](C(=O)NCc3ccc(C)cc3)N2C1=O` the Ki was 0.0116 µM (BIRC3 BIR3; ligand displacement, FP).
For `COc1cc(CNC(=O)C[C@H](C)CCC=C(C)C)ccc1OCc1cn(-c2ccc(Cl)cc2Cl)nn1`, the growth percent was 101% (OVCAR-3 ovarian cancer cells; SRB; 10 µM, 48 h).
`CN[C@@H](C)C(=O)N[C@H]1CN(C(=O)Cc2ccccc2)CC[C@H]2CC[C@@H](C(=O)NCc3cccc(F)c3)N2C1=O` has a Ki of 0.0339 µM (BIRC3 BIR3; ligand displacement, FP).
For `O=C(Nc1cccc(-c2nn[nH]n2)c1)c1cc(-n2cccn2)cc(C(F)(F)F)c1`, the Ki was 2.81 µM (Beta-lactamase CTX-M-27; enzyme activity, inhibitor, absorbance; pH 7).
For `[64Cu+2].c1ccc(CNCc2ccc(CN3CCCN4CCNCCCN(CC4)CC3)cc2)nc1`, the tissue uptake was 8.43 ± 1.06 %ID/g (CXCR4; NOD/SCID mouse, U87 and U87-stb-CXCR4 xenografts, lungs; iv, 90 min, ex vivo).
`O=C(Nc1cccc(-c2nn[nH]n2)c1)c1cc(-c2nn[nH]n2)cc(C(F)(F)F)c1` has a Ki of 1.49 µM (Beta-lactamase CTX-M-27; enzyme activity, inhibitor, absorbance; pH 7).
`CC(=O)N[C@@H](CC(C)C)C(=O)N[C@@H](CC(=O)O)C(=O)N[C@H](C(=O)N1CCC[C@H]1C(=O)N[C@H](C=O)CC(=O)O)C(C)C` gave a Ki of 0.0209 µM (Caspase-7 (CASP7, Homo sapiens, UniProt P55210); enzyme activity, inhibitor, fluorescence; pH 7).
With `CN[C@@H](C)C(=O)N[C@H]1CN(C(=O)Cc2ccccc2)CC[C@H]2CC[C@@H](C(=O)NCc3ccc(Br)cc3)N2C1=O` the Ki was 0.0095 µM and < 0.01 µM (BIRC3 BIR3; ligand displacement, FP).
For `CCC(=O)NCCCCNC(=O)NCc1ccc(CNC(=O)[C@@H](CCCNC(=N)N)NC(=O)C(c2ccccc2)c2ccccc2)cc1`, the Kb was 0.37 µM (Neuropeptide Y receptor type 1 (NPY1R, Homo sapiens, UniProt P25929, F286A); antagonist; human cells).
For `Cc1cc(N)nc(CC2CNCC2OCCNCC(F)(F)C2CCCCN2)c1` (stereo not drawn), the Ki was 64 µM (Nitric oxide synthase 3 (NOS3, Bos taurus, UniProt P29473); enzyme activity, inhibitor, hemoglobin capture).
`CCOC(=O)CNC(=O)/N=C(/N)NCCC[C@@H](NC(=O)C(c1ccccc1)c1ccccc1)C(=O)NCc1ccc(O)cc1` gave a Kb of 0.002 µM and < 0.0013 µM (Neuropeptide Y receptor type 1 (NPY1R, Homo sapiens, UniProt P25929, D287N); antagonist).
For `CC(C)CN(NC(=O)[C@H](CCCNC(=N)N)NC(=O)[C@H](Cc1ccc(O)cc1)NC(=O)CCCCCCC(=O)N[C@@H](Cc1ccc(O)cc1)C(=O)N[C@@H](CCCNC(=N)N)C(=O)NN(CC(C)C)C(=O)N[C@@H](CCCNC(=N)N)C(=O)N[C@@H](Cc1ccc(O)cc1)C(N)=O)C(=O)N[C@@H](CCCNC(=N)N)C(=O)N[C@@H](Cc1ccc(O)cc1)C(N)=O`, the Ki was 0.574 µM (Neuropeptide Y receptor type 1 (NPY1R, Homo sapiens, UniProt P25929); ligand displacement, radioligand).
With `COC(=O)C(CS)N1C(=O)c2cccc3c(N(C)C)ccc(c23)C1=O` (stereo not drawn) the Ki was 0.1 ± 0.02 µM (Metallo-beta-lactamase VIM-2 (VIM-2, Escherichia coli, UniProt Q5U7L7); enzyme activity, inhibitor; Km 8 µM, added: chromacef 25 µM).
`COc1ccc(C(=O)Nc2c(-c3cccs3)nc3ccccn23)cc1` gave a Ki of > 10 µM (biogenic amine receptors and transporters; binding; NIMH-PDSP panel).
`C=C1C(=O)O[C@@H]2[C@H]3C(CO)=CC(=O)C3=C(C)C[C@H](OC(=O)Cc3ccc(O)cc3)[C@@H]12` has a Ki of 27.8 µM (Alpha-glucosidase MAL12 (MAL12, Saccharomyces cerevisiae S288c, UniProt P53341); enzyme activity, inhibitor).
With `CNCc1c(OCc2ccc(F)cc2)ccc2ccccc12` the Ki was 0.613 µM (Sodium-dependent noradrenaline transporter (SLC6A2, Homo sapiens, UniProt P23975); ligand displacement in cells, radioligand).
`[64Cu+2].c1cnc(CNCc2ccc(CN3CCCN4CCNCCCN(CC4)CC3)cc2)nc1` gave a tissue uptake of 1.24 ± 0.72 %ID/g (CXCR4; NOD/SCID mouse, U87 and U87-stb-CXCR4 xenografts, heart; iv, 90 min, ex vivo).
For `CN[C@@H](C)C(=O)N[C@H]1CN(C(=O)Cc2ccccc2)CC[C@H]2CC[C@@H](C(=O)NCc3cccc(C(F)(F)F)c3)N2C1=O`, the Ki was 0.0895 µM (BIRC3 BIR3; ligand displacement, FP).
